Results of several laboratories.
Lines come from different studies, so protocols differ.
Organism: Staphylococcus aureus

Structure (SMILES)	test	system	conditions	MIC
CC[C@H](C)[C@H](NC(=O)[C@@H](NC(=O)CN)C(C)C)C(=O)N[C@@H](Cc1ccccc1)C(=O)N[C@@H](CC(N)=O)C(=O)N[C@@H](C)C(=O)N[C@@H](CC(C)C)C(=O)N[C@@H](CCCCN)C(=O)NCC(=O)N[C@H](C(=O)N[C@@H](C)C(=O)N[C@@H](CCCCN)C(=O)N[C@H](C(=O)N[C@H](C(=O)N[C@@H](C)C(=O)N[C@@H](C)C(=O)N[C@@H](CCC(N)=O)C(=O)N[C@@H](CC(C)C)C(=O)N[C@@H](CC(C)C)C(=O)N[C@@H](CCCCN)C(=O)N[C@@H](CCCCN)C(=O)N[C@@H](C)C(=O)N[C@@H](CCCNC(=N)N)C(=O)N[C@H]1CSSC[C@@H](C(=O)O)NC(=O)[C@H](CO)NC(=O)[C@H](CCCCN)NC(=O)[C@H](CC(=O)O)NC(=O)[C@H](CC(C)C)NC(=O)[C@H](CCCCN)NC1=O)C(C)C)[C@@H](C)O)C(C)C		NCTC 10788, Mueller-Hinton broth	with: CaCl2 2.5 mM	2 µM
COc1ccc2ccc3c(c2c1)C=[N+]1C2CCCCC2[N+]2=Cc4c(OC)cccc4[O][Au-]21[O]3.F[P-](F)(F)(F)(F)F (stereo not shown)	bacterial growth, broth microdilution	vancomycin-intermediate	24 h	> 20 µM
CC(C)[C@H](NC(=O)[C@H](CCCCN)NC(=O)[C@H](CCCNC(=N)N)NC(=O)CNC(=O)[C@H](C)NC(=O)[C@H](CC(N)=O)NC(=O)[C@H](CCCNC(=N)N)NC(=O)[C@@H](NC(=O)[C@H](CCCCN)NC(=O)[C@H](CC(=O)O)NC(=O)[C@@H](NC(=O)[C@@H](NC(=O)[C@H](CCCNC(=N)N)NC(=O)[C@H](CCCNC(=N)N)NC(=O)[C@H](Cc1c[nH]c2ccccc12)NC(=O)[C@H](Cc1c[nH]c2ccccc12)NC(=O)CN)[C@@H](C)O)C(C)C)C(C)C)C(=O)O	bacterial growth	MRSA clinical isolate	18 h	> 256 mg/L
CCO[C@H]1[C@H](O)[C@@H](N)[C@@H](O[C@H]2[C@H](O[C@@H]3O[C@H](CO)[C@@H](O[C@H]4O[C@@H](CN)[C@@H](O)[C@H](O)[C@H]4N)[C@H]3O)[C@@H](O)[C@H](N)C[C@@H]2N)O[C@@H]1CO	microbial growth, broth dilution	MRSA	clinical isolate	8 mg/L
N#CC1COC(=O)N1/N=C/c1ccc([N+](=O)[O-])o1 (stereo not shown)	microbial growth, broth dilution	ATCC29213	18 h	12.5 mg/L
CC[C@H](C)[C@H](NC(=O)[C@H](CCCCN)NC(=O)[C@H](CCCCN)NC(=O)[C@H](Cc1c[nH]c2ccccc12)NC(=O)[C@H](CC(N)=O)NC(=O)[C@@H](N)C(C)C)C(=O)N[C@@H](CC(C)C)C(=O)NCC(=O)N[C@@H](CCCCN)C(=O)N[C@H](C(=O)N[C@H](C(=O)N[C@@H](CCCCN)C(=O)N[C@H](C(=O)N[C@H](C(=O)N[C@@H](CCCCN)C(N)=O)C(C)C)C(C)C)[C@@H](C)CC)[C@@H](C)CC		MSSA RN 4220, RPMI medium	24 h, 37 °C	1.9 µM
CCCCCCCC(=O)N(C)[C@H](CO)C(=O)N[C@H](C)C(=O)NCC(=O)N(C)[C@@H]1C(=O)N[C@@H](C)C(=O)N[C@H](C(=O)O)Cc2ccc(O)c(c2)-c2cc1ccc2O	broth microdilution	NCTC 8325 lepB P29S (PAS8001)	24 h, 37 °C	> 64 mg/L
CC[C@H](C)[C@H](NC(=O)[C@H](CCCCN)NC(=O)[C@H](CC(N)=O)NC(=O)[C@H](CC(C)C)NC(=O)[C@H](Cc1ccccc1)NC(=O)[C@H](CCCCN)NC(=O)[C@H](CCCCNC(=N)N)NC(=O)[C@H](CC(C)C)NC(=O)[C@H](CC(C)C)NC(=O)[C@H](CCCCN)NC(=O)[C@H](CCCCNC(=N)N)NC(=O)[C@H](CC(C)C)NC(=O)CNC(C)=O)C(=O)N[C@@H](CCCCN)C(=O)N[C@@H](CCCCNC(=N)N)C(N)=O	broth microdilution	multidrug-resistant		3.12 µM
CCCCCCCCCCCCCC(=O)N[C@H](CCN)C(=O)N[C@@H]1C(=O)N[C@@H](CCN)C(=O)N[C@@H](CC(C)C)C(=O)N[C@@H](CCN)C(=O)N[C@H](Cc2ccccc2)C(=O)N[C@@H](CC(C)C)C(=O)N[C@@H](CCN)C(=O)N[C@H](CCN)C(=O)N[C@@H](C(C)C)C(=O)N[C@@H](CC(=O)O)C(=O)O[C@@H]1C	broth microdilution	USA 300, methicillin-resistant MDR		2 mg/L
N=C(N)NCCC[C@@H]1NC(=O)[C@H](CCCCN)NC(=O)[C@H](CCCNC(=N)N)NC(=O)[C@H](CCCNC(=N)N)NC(=O)[C@H](CCCNC(=N)N)NC(=O)[C@H](CCCNC(=N)N)NC1=O	broth microdilution	MRSA ATCC 43300	37 °C	> 114 mg/L
CC[C@H](C)[C@H](NC(=O)[C@H](CCCNC(=N)N)NC(=O)[C@H](Cc1ccccc1)NC(=O)[C@H](CC(C)C)NC(=O)[C@H](CCCCN)NC(=O)[C@H](CO)NC(=O)[C@@H](NC(=O)[C@H](CC(C)C)NC(=O)[C@H](CCCCN)NC(=O)[C@H](C)NC(=O)[C@H](CC(N)=O)NC(=O)[C@H](CCCNC(=N)N)NC(=O)[C@H](Cc1ccc(O)cc1)NC(=O)[C@H](C)NC(=O)[C@@H](NC(=O)[C@H](CCCCN)NC(=O)[C@H](CC(N)=O)NC(=O)[C@H](CCCCN)NC(=O)[C@H](CC(C)C)NC(=O)[C@H](CO)NC(=O)[C@H](CC(C)C)NC(=O)[C@H](C)NC(=O)[C@H](C)NC(=O)[C@H](CO)NC(=O)[C@@H](NC(=O)[C@@H](NC(=O)[C@H](Cc1c[nH]c2ccccc12)NC(=O)[C@@H](NC(=O)[C@H](CO)NC(=O)[C@@H](NC(=O)[C@@H](N)CC(C)C)C(C)C)C(C)C)[C@@H](C)CC)[C@@H](C)CC)C(C)C)C(C)C)C(=O)N[C@@H](C)C(=O)N[C@@H](CC(C)C)C(=O)O	broth microdilution	ATCC 29213	24 h, 37 °C	16 mg/L
CC(=O)N[C@@H](CCCNC(=N)N)C(=O)N[C@@H](Cc1c[nH]c2ccccc12)C(=O)N[C@@H](CCCNC(=N)N)C(=O)N[C@@H](Cc1c[nH]c2ccccc12)C(=O)N[C@@H](Cc1c[nH]c2ccccc12)C(=O)N[C@@H](CCCCN)C(=O)N[C@@H](Cc1ccccc1)C(=O)N[C@H](C(N)=O)C(C)C		MRSA ATCC 33591, Mueller-Hinton broth	overnight, 37 °C	11.3 µM
c1ccc(CN2CCOCCOCCN(CCCCCCCCCCCCCCN3CCOCCOCCN(CCCCCCCCCCCCCCN4CCOCCOCCN(Cc5ccccc5)CCOCCOCC4)CCOCCOCC3)CCOCCOCC2)cc1	checkerboard, item: norfloxacin	1199B	500 nM, with: norfloxacin	0.5 µM
CCN1CCNC1=[S+][Ag-3]([O][N+](=O)[O-])([P+](c1ccccc1)(c1ccccc1)c1ccccc1)[P+](c1ccccc1)(c1ccccc1)c1ccccc1	agar dilution	MTCC 740	24 h, 37 °C	10 mg/L
CC[C@H](C)[C@H](N)C1=N[C@H](C(=O)N[C@@H](CC(C)C)C(=O)N[C@H](CCC(=O)O)C(=O)N[C@@H](Cc2ccccc2)C(=O)N[C@H]2CCCCNC(=O)[C@H](CC(N)=O)NC(=O)[C@@H](CC(=O)O)NC(=O)[C@H](Cc3c[nH]cn3)NC(=O)[C@@H](Cc3ccccc3)NC(=O)[C@H]([C@@H](C)CC)NC(=O)[C@@H](CCCN)NC2=O)CS1	broth microdilution	ATCC 29213, LB medium	18 h, 37 °C, with: ZnSO4 0.3 mM	4 mg/L
COc1ccc2c(c1CC=C(C)C)O[C@H]1c3cc4c(cc3OC[C@@]21O)OC(C)(C)C=C4				inactive
CC(C)CCCCCCCCC/C=C/C(=O)N[C@@H](CC(=O)O)C(=O)N[C@H]1CNC(=O)[C@@H]2CCCN2C(=O)[C@H](C)NC(=O)[C@@H]([C@@H](C)O)NC(=O)CNC(=O)[C@H](CC(=O)O)NC(=O)CNC(=O)[C@H](CC(=O)O)NC(=O)CNC(=O)[C@H]2CCCCN2C1=O		MRSA USA300	with: Ca2+ 10 mM	8 mg/L
CC[C@H](C)[C@H](NC(=O)[C@H](CC(=O)O)NC(=O)[C@H](Cc1ccccc1)NC(=O)[C@H](CC(C)C)NC(=O)CN)C(=O)N[C@@H](CC(C)C)C(=O)N[C@@H](CCCCN)C(=O)N[C@@H](CCCCN)C(=O)N[C@@H](CC(C)C)C(=O)N[C@@H](CC(C)C)C(=O)N[C@@H](CCCCN)C(=O)N[C@@H](CC(C)C)C(=O)N[C@@H](CC(C)C)C(=O)N[C@@H](CCCCN)C(N)=O		SH1000 GFP-expressing, nutrient broth	20 h, 37 °C	100 µM
CCCCCNS(=O)(=O)c1ccc(-n2nnc(/C(C)=N/NC(=N)N)c2C)cc1	microbial growth, broth dilution	MRSA USA300	drug-resistant strain	> 64 mg/L
CN1C(=O)[C@@H]2NC(=O)[C@@H]3NC(=O)[C@@H](c4ccc(O)cc4)NC(=O)[C@H](NC(=O)C(N)c4ccc(O)cc4)Cc4c[nH]c5cc(ccc45)-c4cc3cc(c4O)Oc3ccc(cc3)C[C@H]1C(=O)N[C@@H](C(=O)NCCC[N+](C)(C)C)c1ccc(O)c(c1)Oc1ccc2cc1 (stereo partly shown)		ATCC 33591 MRSA, Mueller-Hinton broth		> 128 mg/L
CCCCc1ccc(-c2nc(C)c(C(C)=NNC(=N)N)s2)cc1		ATCC 43300 MRSA		1.3 mg/L
CCCCCCN1C(=O)/C(=N\NC(=N)N)c2cc(C)ccc21	broth microdilution	BAA41 MRSA	18 h, 37 °C	12 mg/L

Repeated from above:
Structure (SMILES)	test	system	conditions	MIC
CC(=O)N[C@@H](CCCNC(=N)N)C(=O)N[C@@H](Cc1c[nH]c2ccccc12)C(=O)N[C@@H](CCCNC(=N)N)C(=O)N[C@@H](Cc1c[nH]c2ccccc12)C(=O)N[C@@H](Cc1c[nH]c2ccccc12)C(=O)N[C@@H](CCCCN)C(=O)N[C@@H](Cc1ccccc1)C(=O)N[C@H](C(N)=O)C(C)C		MRSA ATCC 33591, Mueller-Hinton broth	overnight, 37 °C	11.3 µM
c1ccc(CN2CCOCCOCCN(CCCCCCCCCCCCCCN3CCOCCOCCN(CCCCCCCCCCCCCCN4CCOCCOCCN(Cc5ccccc5)CCOCCOCC4)CCOCCOCC3)CCOCCOCC2)cc1	checkerboard, item: norfloxacin	1199B	500 nM, with: norfloxacin	0.5 µM
CCN1CCNC1=[S+][Ag-3]([O][N+](=O)[O-])([P+](c1ccccc1)(c1ccccc1)c1ccccc1)[P+](c1ccccc1)(c1ccccc1)c1ccccc1	agar dilution	MTCC 740	24 h, 37 °C	10 mg/L
